Published values from different studies.
Values joined by “and” are separate records of one study, mostly repeats; a detail may differ.
Technique: steady-state kinetics
B1: enzyme (Scutellaria baicalensis, UniProt A0A146AUI9); chain MDLVEVTLYAALFLLSAAFLLLIFAGDRSSPPGPFPLPIIGHLHLLGPKLHQSFHGLSQRHGPLMQIRLGSINCVVASTPELAKEFLKTNELVFSSRKHSTAIDIVTYNSSFAFSPYGPYWKYIKKLCTYELLGARNLHHFQPIRTFEVHTFLRLLMEKSESGESFNVTEELIKLTSNVMSNMMLGTRCSATDGEAEAARTVIREVTEIFGEFDAADIIWFCKNFDLQGIRKRSEDIQRRYDALLEKIITDREKLRRSHRGGEAKDFLDIFLDIMDSGNSEVKFSREHLKALILDFFTAGTDTTAISTEWAIAELMNNPKVLKKAQEEIQKVVGSCRLMDESDAPNLPYLEAIIKETFRLHPPIPMLARKSVSDCVIDGYNIPASTLLFVNIWSIGRNPECWDSPFSFRPERFFEKDNASIDIKGQHFQLLPFGTGRRGCPGMLLAIQELLLIIGTMIQCFDWELPEGSGPVDMTERAGLTAPRAEDLICRVSCRVDPKIVF
B2: protein (Brassica rapa, UniProt A0A0M7RFX0); chain MEQILSNSNPFLLTLLALFPLIIFALIKKNNKSRKLNLPPSPPKLPFIGNLHQIGDLPHKSLHDLSLKHGPFMFVNFGATRYLVVSSAAALEEISKNHDIDFSNRPAIASLQGLKGNGQDMVYHPYGDHWKQLRKVGALHLLNKNAVNKFQTMRDEEISSMLKTLDVHNVKGEDVDITDIFNIVVSNIFLRSYTGSTHKEDKTTKKFLDWDVKFKKLMGAFCVGDMYSSFAWVDRFTGFTTLLKNIYSELDGIMDKLINEREKESYVDVLVRLRDVEKYDYDVKAIMKGTFVAAIESVALELEWLFSELIKNPEVLKKAQEEVQRVVGTKAEITSNEIEQMHYLRCIIKETLRLHPPGIVPRQTSSKWIKVGGYDIPPNTKVLVNLFAVQRDPKDWDRPDEFIPERFMEKHVDFMGSKGYVPFGFGRRNCPGMAYGIALLEEIIANLLYRFDWKMYDGSKPEELSMEEISQFVVTRKVPLRVIPVRRV
B3: enzyme (Sphingopyxis macrogoltabida, UniProt D2D3B2); chain MANGTRQKDLRERAERVIPGGMYGHESTRLLPPEFPQFFRRALGARIWDADEQPYIDYMCAYGPNLLGYRQSEIEAAADAQRLLGDTMTGPSEIMVNLAEAFVGMVRHADWAMFCKNGSDATSTAMVLARAHTGRKTILCAKGAYHGASPWNTPHTAGILASDRVHVAYYTYNDAQSLSDAFKAHDGDIAAVFATPFRHEVFEDQALAQLEFARTARKCCDETGALLVVDDVRAGFRVARDCSWTHLGIEPDLSCWGKCFANGYPISALLGSNKARDAARDIFVTGSFWFSAVPMAAAIETLRIIRETPYLETLIASGAALRAGLEAQSQRHGLELKQTGPAQMPQIFFADDPDFRIGYAWAAACLKGGVYVHPYHNMFLSAAHTVDDVTETLEATDRAFSAVLRDFASLQPHPILMQLAGA
B4: XKS1 (Saccharomyces cerevisiae, UniProt P42826); chain MLCSVIQRQTREVSNTMSLDSYYLGFDLSTQQLKCLAINQDLKIVHSETVEFEKDLPHYHTKKGVYIHGDTIECPVAMWLEALDLVLSKYREAKFPLNKVMAVSGSCQQHGSVYWSSQAESLLEQLNKKPEKDLLHYVSSVAFARQTAPNWQDHSTAKQCQEFEECIGGPEKMAQLTGSRAHFRFTGPQILKIAQLEPEAYEKTKTISLVSNFLTSILVGHLVELEEADACGMNLYDIRERKFSDELLHLIDSSSKDKTIRQKLMRAPMKNLIAGTICKYFIEKYGFNTNCKVSPMTGDNLATICSLPLRKNDVLVSLGTSTTVLLVTDKYHPSPNYHLFIHPTLPNHYMGMICYCNGSLARERIRDELNKERENNYEKTNDWTLFNQAVLDDSESSENELGVYFPLGEIVPSVKAINKRVIFNPKTGMIEREVAKFKDKRHDAKNIVESQALSCRVRISPLLSDSNASSQQRLNEDTIVKFDYDESPLRDYLNKRPERTFFVGGASKNDAIVKKFAQVIGATKGNFRLETPNSCALGGCYKAMWSLLYDSNKIAVPFDKFLNDNFPWHVMESISDVDNENWDRYNSKIVPLSELEKTLI
B5: enzyme N249W (Thermobifida fusca, UniProt Q47RK4); chain MTDVYILDAVRTPFGRYGGALSGIRPDDLAAHVLRALAERSPGLDPAAVDDVFFGDANGAGEDNRNVARMAALLAGWPTSVPGVTLNRLCGSGMESVIAANRAIAVGDASLAVAGGVESMSRAPWVLPKPAQGFPTGHETLYSTTLGWRMVNPAMPEQWTVSLGESTEQVAATYGISRAEQDAFALRSHERAARAWAEGVFDAEITQIPGAELERDESIRETSAEKLAALKPAFRPDGTITAGNASPLWDGAAALLIGDAAAAERVGREPLARIVSRGVAAVDPDVFGIGPVQAAEIALRRAGIGWDDLSVVELNEAFAAQSLACLKLWPDLDPEIVNPNGGAIAIGHPLGASGARIVGTLAHELHRRGGGWGLAAICIGVGQGLAVVLHR
B6: protein Y24F (uncultured bacterium HF130_AEPn_1, UniProt D0E8I5); chain MSLSNSSKVSVLISLLEKSRDLDFIGEAINQLEHSLQCAYFAQRSGADNEMVLAALLHDLGHYCNDTSFEDMGGYGVWQHEKVGADYLRGLGFSERVACLIEGHVAAKRYLVSSKASYLKNLSDASRKTLEYQGGPMDEGERRLFEEREDFKDCLKIRAWDEKGKQTDLKVPGPEHYRKMMEEHLSENQN
B7: enzyme H189D (Acetivibrio thermocellus, UniProt A3DJ38); chain MKLTIPELSLVVLIGSSGSGKSTFAKKHFKPTEVISSDFCRGLVSDDENDQTVTGAAFDVLHYIVSKRLQLGKLTVVDATNVQESARKPLIEIAKDYHCFPVAVVFNLPEKVCQERNKNRTDRQVEEYVIRKHTQQLKKSIKGLQREGFRYVYILNSPEEVEEVVFERQPLWNNKKDEHGPFDIIGDIDGCYDELKMLLEKLGYLIEEVEGGVGSGKYRVTHPEGRKVLFLGDLVDRGPKITEVLKLVMGMVKSGIALCVPGNHDVKLLRKLNGRDVQITHGLDRTLEQLAKEPQEFIEEVKAFIDGLVSHYVLDDGKLVVAHAGMKEEFQGRGSGKVREFALYGETTGETDEYGLPVRYDWASDYRGKALVVYGHTPQAEVLKVNNTINIDTGCVFGGKLTAYRYPEREIVDVKALKTYYEPAKPFLPKEDMAERFEARTDNDILDINDVLGKKIITTRLMSSITIHEENSIAALEVMSRFAADPHWLIYLPPTMSPCETSKKEGMLEHPIEAFEYFRTRGVGKVVCEQKHMGSRAVVIVCKDSQVAEKRFGVLDGTAGICYTRTGRHFFDDMQLEAELIDRVRKVLDKSGFWGDFNTDWVCLDCELMPWSAKAQKLLEEQYSAVGISGRVVLDEAVKLLKQASLNKTVSFDVSRQTSGKNADINELLQRFTERSEMMQKYVEAYRKYCWPVNSIDDLKLAPFHILATEGKVHSDKNHIWHMDTIAKYCTQDDSLIMATNHILVDVTDAESVDKGIKWWEDLTASGGEGMVVKPYDFIVKNGRELLQPAVKCRGREYLRIIYGPEYTMDENIERLRNRAVGKKRSLALREFSLGMEALERFVRNEPLYRVHECVFGVLALESEPVDPRL
B8: Lxyl-p1-1 V91S (Lentinula edodes, UniProt G8GLN9); chain YFSGLGLGSERSIFRRDLNSTGDESNSTQWPAPLANGGKSWASAFKKAKSTVAEMTVEELANITSGVIGLCSGVTGAVTRLGIPELCLQDGPIGPRGVHGSSQFPAGLTVAATWDRTLMYARARGMGQEFHDQGVHIALAPVTGGPLGRTPLNGRGWEGTFADPYACGEASYQSVKGLTDAGVATVSKHWIAYEQETSRNLYIEFDGVSQADIQLPISSNVDDLTMHELYMWSFAEAVRAGTNHIMCSYNRINNTHSCNNAKGLNQLLKTELNFQGGVVSDWGGQWDSVLSAENGLDVGMPGEGFLGELGDFWGTTLADLINNGTVSEDLVRDKVVRLLTGYYYLGQDINPPPPFVYNTIGAPTLNATSGYRNVRKPGTAELIKEIGSASVTLLKNTGSLPLKHPQRIAVLGNDATYNVLGPNACGLANSACDIDNLNGTLTTGGGSGSALSPYTITPLEALQKRAIEDNAEIAAVVANSNTTTGAEDAIAALLPDADVTFVFLNRYSEEGADAPDFSLGGDGDNLMDLAVTYSSNVVVVIHTTGVVDIEKWADNPNVTAILVAYLPGQEAGNSLVPVLYGDVAPSGKLPWTWGKSIDDYVPNGVVYTDAYSPQSNFTEGVFIDYRWFDKMGITPRYEFGFGLSYTTFTYSNLIVDHGRWAKDYSSVMETAEPFAEWDGTNSLYDVIFTVFATITNTGNLTGSEVAQLYISIPGDNQPVRQLRGFDKIKDLPVGDSAVVTFPIRRKDVSSWSVVDQLWYVPNGDFLISVGGSSRDLPLNTTWTP
B9: nitrilase Y142F (Rhodococcus rhodochrous, UniProt A4LA85); chain MVEYTNTFKVAAVQAQPVWFDAAKTVDKTVSIIAEAARNGCELVAFPEVFIPGYPYHIWVDSPLAGMAKFAVRYHENSLTMDSPHVQRLLDAARDHNIAVVVGISERDGGSLYMTQLIIDADGQLVARRRKLKPTHVERSVFGEGNGSDISVYDMPFARLGALNCWEHFQTLTKYAMYSMHEQVHVASWPGMSLYQPEVPAFGVDAQLTATRMYALEGQTFVVCTTQVVTPEAHEFFCENEEQRKLIGRGGGFARIIGPDGRDLATPLAEDEEGILYADIDLSAITLAKQAADPVGHYSRPDVLSLNFNQRRTTPVNTPLSTIHATHTFVPQFGALDGVRELNGADEQRALPSTHSDETDRATASI
Chain of UniProt P0A0C1 (whole entry, looked up): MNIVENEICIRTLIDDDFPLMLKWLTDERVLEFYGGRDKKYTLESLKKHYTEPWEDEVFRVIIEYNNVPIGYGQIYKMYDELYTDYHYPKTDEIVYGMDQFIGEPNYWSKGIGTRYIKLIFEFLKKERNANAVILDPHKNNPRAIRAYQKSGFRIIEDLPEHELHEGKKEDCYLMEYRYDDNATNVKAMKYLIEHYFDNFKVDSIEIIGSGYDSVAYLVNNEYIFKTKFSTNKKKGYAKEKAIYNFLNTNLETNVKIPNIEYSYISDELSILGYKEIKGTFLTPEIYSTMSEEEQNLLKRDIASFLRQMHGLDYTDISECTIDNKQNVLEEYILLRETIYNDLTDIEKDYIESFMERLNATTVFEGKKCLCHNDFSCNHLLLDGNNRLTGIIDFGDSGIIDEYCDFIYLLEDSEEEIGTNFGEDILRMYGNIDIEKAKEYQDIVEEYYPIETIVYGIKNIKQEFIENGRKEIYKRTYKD
Chain of UniProt G3XD23 (whole entry, looked up): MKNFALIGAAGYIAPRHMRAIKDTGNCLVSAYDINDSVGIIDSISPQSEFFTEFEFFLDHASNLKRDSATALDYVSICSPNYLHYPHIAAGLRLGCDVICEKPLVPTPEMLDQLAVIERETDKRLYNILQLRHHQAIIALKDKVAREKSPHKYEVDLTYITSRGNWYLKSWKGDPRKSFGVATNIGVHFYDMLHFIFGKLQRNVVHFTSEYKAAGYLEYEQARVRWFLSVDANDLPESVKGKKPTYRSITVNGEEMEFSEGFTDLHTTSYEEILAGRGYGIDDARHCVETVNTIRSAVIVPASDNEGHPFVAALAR
Chain of UniProt Q6XEC0 (whole entry, looked up): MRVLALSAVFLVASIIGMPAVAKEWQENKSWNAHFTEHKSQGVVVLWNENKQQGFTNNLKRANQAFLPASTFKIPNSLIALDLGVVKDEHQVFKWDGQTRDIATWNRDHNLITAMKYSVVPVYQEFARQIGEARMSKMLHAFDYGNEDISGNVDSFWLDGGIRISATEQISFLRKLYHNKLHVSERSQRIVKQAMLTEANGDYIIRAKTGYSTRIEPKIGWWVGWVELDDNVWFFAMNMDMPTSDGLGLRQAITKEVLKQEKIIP
Chain of UniProt P30986 (whole entry, looked up): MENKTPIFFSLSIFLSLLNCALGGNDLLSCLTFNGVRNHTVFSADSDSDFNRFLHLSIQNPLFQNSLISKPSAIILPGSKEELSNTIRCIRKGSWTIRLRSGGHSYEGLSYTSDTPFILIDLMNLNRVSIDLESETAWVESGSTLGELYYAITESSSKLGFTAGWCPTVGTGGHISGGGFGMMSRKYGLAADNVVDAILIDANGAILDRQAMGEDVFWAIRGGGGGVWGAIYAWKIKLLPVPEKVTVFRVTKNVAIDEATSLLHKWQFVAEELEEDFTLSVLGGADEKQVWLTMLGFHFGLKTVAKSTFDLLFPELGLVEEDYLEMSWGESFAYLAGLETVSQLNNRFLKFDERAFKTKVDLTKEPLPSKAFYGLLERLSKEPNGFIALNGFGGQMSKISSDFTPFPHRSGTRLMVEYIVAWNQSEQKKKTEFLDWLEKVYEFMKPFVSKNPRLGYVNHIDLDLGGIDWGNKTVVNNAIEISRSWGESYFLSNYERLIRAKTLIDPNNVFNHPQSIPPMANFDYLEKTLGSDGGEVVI
Chain of UniProt P22303 (whole entry, looked up): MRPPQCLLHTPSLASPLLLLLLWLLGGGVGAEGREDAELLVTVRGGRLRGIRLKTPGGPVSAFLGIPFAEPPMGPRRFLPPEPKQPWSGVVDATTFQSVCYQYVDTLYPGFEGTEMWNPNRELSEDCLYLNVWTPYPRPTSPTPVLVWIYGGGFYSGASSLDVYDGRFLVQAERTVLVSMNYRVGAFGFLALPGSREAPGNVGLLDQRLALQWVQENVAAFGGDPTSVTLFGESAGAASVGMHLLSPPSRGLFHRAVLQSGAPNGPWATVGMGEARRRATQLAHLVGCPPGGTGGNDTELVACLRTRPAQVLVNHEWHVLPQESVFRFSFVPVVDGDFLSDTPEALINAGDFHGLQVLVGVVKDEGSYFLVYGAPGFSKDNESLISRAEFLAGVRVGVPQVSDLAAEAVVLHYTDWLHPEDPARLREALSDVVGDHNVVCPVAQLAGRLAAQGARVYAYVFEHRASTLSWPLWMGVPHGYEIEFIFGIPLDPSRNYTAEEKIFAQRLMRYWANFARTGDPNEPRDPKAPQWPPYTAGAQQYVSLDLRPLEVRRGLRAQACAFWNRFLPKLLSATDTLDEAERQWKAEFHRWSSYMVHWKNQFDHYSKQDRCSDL
Chain of UniProt P33378 (whole entry, looked up): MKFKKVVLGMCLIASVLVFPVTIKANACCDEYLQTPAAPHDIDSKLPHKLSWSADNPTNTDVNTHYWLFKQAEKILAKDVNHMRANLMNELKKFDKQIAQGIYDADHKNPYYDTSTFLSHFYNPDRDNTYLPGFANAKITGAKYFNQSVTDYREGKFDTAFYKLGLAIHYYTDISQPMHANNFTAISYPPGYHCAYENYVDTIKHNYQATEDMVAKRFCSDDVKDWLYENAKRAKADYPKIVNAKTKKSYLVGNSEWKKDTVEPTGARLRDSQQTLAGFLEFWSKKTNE
Chain of UniProt P76562 (whole entry, looked up): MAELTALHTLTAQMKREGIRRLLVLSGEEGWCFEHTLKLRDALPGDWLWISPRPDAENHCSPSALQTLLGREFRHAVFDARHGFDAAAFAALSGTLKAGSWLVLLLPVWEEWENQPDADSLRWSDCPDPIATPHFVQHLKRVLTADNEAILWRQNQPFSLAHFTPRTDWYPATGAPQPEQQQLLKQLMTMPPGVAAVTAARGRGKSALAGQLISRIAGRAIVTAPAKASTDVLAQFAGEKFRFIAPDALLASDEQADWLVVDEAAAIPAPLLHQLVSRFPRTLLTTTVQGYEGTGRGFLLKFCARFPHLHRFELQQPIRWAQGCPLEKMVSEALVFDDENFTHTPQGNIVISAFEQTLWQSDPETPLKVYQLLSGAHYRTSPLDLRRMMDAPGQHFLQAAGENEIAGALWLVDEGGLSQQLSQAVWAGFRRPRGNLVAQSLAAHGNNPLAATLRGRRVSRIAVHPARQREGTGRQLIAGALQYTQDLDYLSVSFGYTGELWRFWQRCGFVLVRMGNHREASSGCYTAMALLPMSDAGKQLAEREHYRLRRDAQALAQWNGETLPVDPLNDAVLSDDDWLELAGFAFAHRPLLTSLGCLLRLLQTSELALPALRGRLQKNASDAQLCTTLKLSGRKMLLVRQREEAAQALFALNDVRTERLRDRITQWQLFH

For `B1 (enzyme)`, the Km was 0.28 µM (O=C1C[C@@H](c2ccc(O)cc2)Oc2cc(O)cc(O)c21; pH 7.9, 28 °C, apparent, not purified).
With `tmcA (Escherichia coli, UniProt P76562)` the Km was 2.93 µM (Nc1ncnc2c1ncn2[C@@H]1O[C@H](COP(=O)(O)OP(=O)(O)OP(=O)(O)O)[C@@H](O)[C@H]1O; pH 7.8, 10 mM KCl, no tRNA, no acetyl-CoA, together with: MgCl2 10 mM).
`B2 (protein)` has a Km of 0.248 µM (CSC(=S)NCc1c[nH]c2ccccc12; microsomes; pH 7.5, 30 °C, apparent, not purified, together with: NADPH 1 mM).
With `B3 (enzyme)` the Km was 1.1 µM (CCCC[C@@H](C)[C@@H](O)[C@@H](O)C[C@@H](C)C[C@H](O)CCCC[C@@H](O)C[C@H](O)[C@H](C)N; pH 8, 35 °C, apparent).
`BBE1 (Eschscholzia californica, UniProt P30986)` has a Km of 0.27 µM (COc1ccc(C[C@H]2c3cc(O)c(OC)cc3CCN2C)cc1O; pH 9, 25 °C, apparent).
The Km of `aacA-aphD (Staphylococcus aureus, UniProt P0A0C1)` is reported as 69 µM (CN[C@@H]1[C@@H](O)[C@@H](O[C@@H]2[C@@H](O)[C@H](O[C@H]3OC(CNCCO)=CC[C@H]3N)[C@@H](N)C[C@H]2NC(=O)[C@@H](O)CCN)OC[C@]1(C)O; pH 7.5, 25 °C).
With `B4 (XKS1)` the Km was 1700 µM (Nc1ncnc2c1ncn2[C@@H]1O[C@H](COP(=O)(O)OP(=O)(O)OP(=O)(O)O)[C@@H](O)[C@H]1O; pH 7.4, 30 °C, KCl 50 mM, together with: D-xylulose 5.00 mM).
The Km of `B5 (enzyme N249W)` is reported as 2890 µM (CC(C)(COP(=O)(O)OP(=O)(O)OC[C@H]1O[C@@H](n2cnc3c(N)ncnc32)[C@H](O)[C@@H]1OP(=O)(O)O)[C@@H](O)C(=O)NCCC(=O)NCCSC(=O)CC(=O)O; pH 7.4, 37 °C).
For `ACHE (Homo sapiens, UniProt P22303)`, the Km was 57 µM (CC(=O)SCC[N+](C)(C)C; pH 7, 25 °C, apparent).
The Km of `wbpB (Pseudomonas aeruginosa, UniProt G3XD23)` is reported as 250 µM (CC(=O)N[C@H]1[C@@H](OP(=O)(O)OP(=O)(O)OC[C@H]2O[C@@H](n3ccc(=O)[nH]c3=O)[C@H](O)[C@@H]2O)O[C@H](C(=O)O)[C@@H](O)[C@@H]1O; pH 8.5, 25 °C).
The Km of `rfbC (Campylobacter jejuni, UniProt Q0P8I4)` is reported as 136 µM (Nc1nc2c(ncn2[C@@H]2O[C@H](COP(=O)(O)OP(=O)(O)O[C@H]3O[C@H]([C@H](O)CO)C(=O)[C@H](O)[C@@H]3O)[C@@H](O)[C@H]2O)c(=O)[nH]1; pH 7.5, 30 °C).
With `B6 (protein Y24F)` the Km was 566 µM and 327 µM (NC[C@H](O)P(=O)(O)O; pH 7, 25 °C, NaCl 150 mM, together with: O2, Fe(II) 100 µM, ascorbate 100 µM).
`plcB (Listeria monocytogenes, UniProt P33378)` has a Km of 43500 µM (CCCC(=O)OC[C@H](COP(=O)([O-])OCC[N+](C)(C)C)OC(=O)CCC; pH 6, 37 °C).
The Km of `OXA-48 (Klebsiella pneumoniae, UniProt Q6XEC0)` is reported as 140 µM (CC(=O)OCC1=C(C(=O)O)N2C(=O)[C@@H](NC(=O)Cc3cccs3)[C@H]2SC1; pH 7.2, 30 °C).
`B7 (enzyme H189D)` has a Km of 20000 µM (Nc1ncnc2c1ncn2[C@@H]1O[C@H](CO)[C@H]2OP(=O)(O)O[C@H]21; pH 7.5, 45 °C).
`B8 (Lxyl-p1-1 V91S)` gave a Km of 760 µM ([H][C@]12[C@H](OC(=O)c3ccccc3)[C@]3(O)C[C@H](OC(=O)[C@H](O)[C@@H](NC(=O)c4ccccc4)c4ccccc4)C(C)=C([C@@H](O)C(=O)[C@]1(C)[C@@H](O[C@@H]1OC[C@@H](O)[C@H](O)[C@H]1O)C[C@@]1([H])OC[C@@]21OC(C)=O)C3(C)C).
`B9 (nitrilase Y142F)` has a Km of 1560 µM (N#Cc1ccccn1; pH 7.5, 25 °C).

For quick reference, copied from above:
`plcB (Listeria monocytogenes, UniProt P33378)` has a Km of 43500 µM (CCCC(=O)OC[C@H](COP(=O)([O-])OCC[N+](C)(C)C)OC(=O)CCC; pH 6, 37 °C).
